Measured values pooled from the literature.
Parts stem from different laboratories: compare values within a part only. “And” joins repeats or separate records; there may be more than shown. Changes are numbered by the printed parent chain.

Sample 1
Target: TAR DNA-binding protein 43, full length, His tag (TARDBP, Homo sapiens, UniProt Q13148, residues 1-414)
Method: RNA Bind-n-Seq
Molecule type: RNA
Sample: in vitro
Concentration: 20 nM
Setting: 6-mer, flanks averaged, single round
With: 150 mM LiCl
Reference: input library
Reading: higher = stronger binding
Endpoint: 6-mer enrichment (R)
AGUCGC: 0.885
UCCACU: 0.882
UGAACC: 0.914
CGAGGC: 0.935
GCCAGU: 0.962
GUCCUG: 0.948
GUUUUA: 1.24
GCUGUG: 1.2
CCCGUC: 0.924
CUCUUU: 1.07
UAAGGA: 0.911
CUACAC: 0.861
GAGUCC: 0.897
AUCAGG: 0.874
GUCAGU: 0.98
AAAAGA: 0.794
UUUCCU: 1.03
CUAAUC: 0.836
GAUCGC: 0.963
GUACAU: 0.884
AUUGGC: 0.939
AUAUGC: 0.936
AUACAA: 0.848

Sample 2
Target: CRIPT, C-terminal peptide
Method: DHFR complementation, deep sequencing
Sample: yeast
Setting: single substitutions, model-inferred values
Reference: wild type
Reading: higher = weaker binding
Endpoint: binding free energy change
Starting sequence: ERBIN, PDZ domain 1 (human); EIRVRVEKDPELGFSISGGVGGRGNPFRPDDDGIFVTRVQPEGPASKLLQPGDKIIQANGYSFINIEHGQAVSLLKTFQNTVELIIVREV; partner TKNYKQTSV
V87G: -0.0888 kcal/mol
F14V: -0.903 kcal/mol
D30P: 0.751 kcal/mol
E83A: 0.0259 kcal/mol
V82M: 1.55 kcal/mol
L84W: 1.19 kcal/mol
V87D: 0.0284 kcal/mol
K54P: 1.07 kcal/mol
R28T: -0.0357 kcal/mol
P26D: 0.89 kcal/mol
G69A: 0.118 kcal/mol
G21T: 0.414 kcal/mol
L48W: -0.0455 kcal/mol
S46Y: 0.0204 kcal/mol
L12I: 1.84 kcal/mol
V72H: 1.6 kcal/mol
E89I: 0.00672 kcal/mol

Sample 3
Target: Histone acetyltransferase KAT6A, both winged helices, GST fusion (KAT6A, Homo sapiens, UniProt Q92794, residues 1-181)
Method: protein binding microarray
Molecule type: double-stranded DNA, one strand shown
Sample: in vitro
Concentration: not given
Setting: 8-mer, flanks averaged, mean of 2 arrays, mostly near background
Reference: not given
Reading: higher = stronger binding
Endpoint: E-score
Construct (chain): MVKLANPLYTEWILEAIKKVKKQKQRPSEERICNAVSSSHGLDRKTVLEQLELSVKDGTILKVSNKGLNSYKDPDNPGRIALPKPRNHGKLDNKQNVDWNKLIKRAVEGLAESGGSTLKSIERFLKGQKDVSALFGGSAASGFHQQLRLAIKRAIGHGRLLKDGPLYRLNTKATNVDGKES
ATAGAAGC: -0.115
GGGCGGAA: 0.0364
CCGAACAC: 0.145
AAGTGCCC: -0.129
ACGAGACG: 0.0585
AATTGGTG: -0.22
CATAAGAA: -0.139
CGTAAGAG: -0.0118
CACACACG: 0.133
CATCGGAA: 0.0815
CGATACAC: -0.0109
CGCCCAGC: 0.106
ATAGTATC: 0.0508
AAGGTTGT: -0.0503
GGTCAGCA: -0.0699
ATAAGTAT: -0.0765
AATATTCG: 0.0542
CGTTGGAG: 0.127

Sample 4
Target: RNA binding protein fox-1 homolog 2, RRM domain, GST-SBP tag (RBFOX2, Homo sapiens, UniProt O43251-10, residues 100-194)
Method: RNA Bind-n-Seq
Molecule type: RNA
Sample: in vitro
Concentration: 365 nM
Setting: natural RNA segment, single round, ends assumed
Reference: no-protein control
Reading: higher = stronger binding
Endpoint: RBNS enrichment (R)
Shared flanks, not repeated: GGGAGUUCUACAGUCCGACGAUC … UGGAAUUCUCGGGUGCCAA
Construct (chain): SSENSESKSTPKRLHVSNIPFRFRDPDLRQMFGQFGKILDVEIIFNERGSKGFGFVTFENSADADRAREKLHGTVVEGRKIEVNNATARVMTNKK
UGAACACCGACAUCUUCAGUUUACUUGUGUCUGCAGUUCUGUGGACAGAACAAAGCCAUUCACAAGUGACCGACAGCACGUGCCGUGAGACGGGAGGUGGCUGCAGGAAG: 0.689
CCCACUGUGAAGGGGUGCCAUACUACCUUAAAUGCUAAUGCUAGAUAUGCAAAACUGGAUUUUUUUAAUUUAUUUUUUAAAAGAGGGAGGCAUGGUAUAUUAAAAUGAUU: 1.78
UAAAGAGCAGCUAGGGAAGGAGAGAAACAGUGUCCUGGGUGAGACUUGGUAGAUACUGCUCCAAUAUCCUGUUGCUAGCCCCCACCUCCUUCUGGAACAGUGUGAGACAA: 0.27
GGGCCACGGGCGCGAGACUGCCCGACGCCACGGCCCCGCGCCCCUCCCGGUCCUCCACGCGGACCACUAUGCUUCCCCACCGCAGCAGGCGACCGCGGCGCAGCUCCCAC: 0.389
UGUCAAAUUAAGAUAUGUAUUUGUAAGUUAUUGGUGGCUCAUUUAAACUGUAUCAUACAGUAAUGCCAGCAUUUUUAUUUAAUAGGUCAUCGUCUUCCUUUUAUAGCUGU: 0.51
UGAAGCUUGGAAACACAGCUGGGAAGUUUGUAUUCAUUUACUUAGUAGAUAUGUGCAGAGCUCCUUGUGUAUGUCUGUGACUGGUUAGACCCCACGCCCCUCACUGAGCU: 0.324
GGCUUGCUGCAGGAGGCCCACGUCUGGCCUUUUUCUGUGGGACACUUCUGACCUUGACACUCCGGCCUCAAGCAGUUGCUGCAGAGUGGUUCUUUUUGCAUUUAAUGCCC: 0.372
ACAGCUAACGAGGCUGCCUCCAGCAUUUCCUGAUUUCCUCUGUGGUAAUAAAAGCUUUCUGUGCUUAGGUCUGGGUUAGGUUGUGAAUUUUGUCACGUAACGACAACUAA: 0.455
CAAACAGGAAGUGUUUUCAGGCCCUUACAUGCUUAUCCUUAAGGUGAGUAGGUAUCUCAGCAGCACACCCGAACAGUAAAGGUGAUCAAUAACGAAACUGUAGUUUUCAG: 0.284
UCUCUUUAGUUGUGAUUUGAUUCUAUAGUCUGUUUCUAAAUGACAUUUGUCUGUUUCUUAAAUGAUCUCACAGCCAUGGUAAUAAUAGAUGUGUACUCAGAAGAUCAAUA: 0.531
GUCAUUCCAUUUCUUUUGUUUGAAGCUAAAGAGAUGUGUAGCUCACAGGGGCUACCUUACCAGUAUAAAGAGCUGAUAACAGUACUCAGAAGAAUCUGUGAACAAAUACU: 0.341
GAUACUUCCCUCCAAAAAAAAAUCUUUUAAUGUGGAAACAAUAAAUUUCACAGAAAAAAAAAAAAAAGGGUCGAGAUUGCUUUAUUUGGUUCCUGCUGUUCCAUGAGAAA: 0.774

Sample 5
Target: CCNB3, cyclin fold, Cln2 fusion (human)
Method: yeast growth competition, sequencing
Sample: yeast
Setting: weak parent motif
Reference: not given
Reading: higher = stronger binding
Endpoint: normalised enrichment score
Starting sequence: SLBP docking peptide (human); ARYKRKLLINDFG
R2P: 0.145
R5N: 0.12
D11A: 0.456
F12C: 0.179
L8G: -0.182
N10K: -0.255
L8V: 0.527
L8P: -0.0426
D11Q: 0.0167
Y3V: 0.365
K6N: 0.264
K4W: 1.03
L8T: -0.103
K6F: -0.0613
L7M: 0.284
G13E: 0.412
R5I: 0.0096
I9V: 0.134
K6G: 0.287
L7V: 0.164
F12K: 0.128
D11Y: 0.555

Sample 6
Target: Fragile X messenger ribonucleoprotein 1, C-terminal low-complexity region (Fmr1, Mus musculus, UniProt P35922)
Method: RNA Bind-n-Seq
Molecule type: RNA
Sample: in vitro
Concentration: 200 nM
Setting: whole 134-nt RNA, ends assumed
With: 150 mM KCl
Reference: input library
Reading: higher = stronger binding
Endpoint: log2 enrichment
Shared flanks, not repeated: GGGAGUUCUACAGUCCGACGAUC … UGGAAUUCUCGGGUGUCAAGG
AAGUCCUGUGCUACACAUCGUAUGUACCGAAUCGGGAAAAAGGGUUUUUGGGAGGGAAAGUAUUAUGUUACGCCGUUCGGAUCUGCACUU: 0.719
AAGUCCUGUGCUACACAUCGUAUGUACCGAAUCGGAAAAAAAGGUGGUUUUUUUGGAAAGUAUUAUGUUACGCCGUUCGGAUCUGCACUU: -0.981
UCCUGUGCUACACAUCGUAUGUACCGAAUCGGGAAAAAGGGAAAAAAAGGGAAAAAGGGAAAGUAUUAUGUUACGCCGUUCGGAUCUGCA: -0.251
UUCACAGGUAAGUGGGGCAGUGUCCGGACCAGUGGACGCAGCAGUGGCCUUGGCACCGAUGUGGGCUCCCGGCUAGCUGGCAGAGACGCG: -0.203
CAAGUCCUGUGCUACACAUCGUAUGUACCGAAUCGGGAAAGGGUUUUUGGGAGGGAAAGUAUUAUGUUACGCCGUUCGGAUCUGCACUUC: 0.889
GUCCUGUGCUACACAUCGUAUGUACCGAAUCAAACCCCCAAAUUUUUUUAAAUUUAAAAAAGUAUUAUGUUACGCCGUUCGGAUCUGCAC: 0.274
UCUAGAUACAGAUGCACGAUUUGGCCAUGGAUCCGACUACUCUCGCCAACAGAACAGAUUUAAUGACUUUGAUCACCGAGAGAGGGGCAG: -0.321
UCCUCAAGUCCUGUGCUACACAUCGUAUGUACCGAAUCGGUGGUGGGUGGGGAAAGUAUUAUGUUACGCCGUUCGGAUCUGCACUUCCAG: 0.515
UCAAGUCCUGUGCUACACAUCGUAUGUACCGAAUCGGGAGGGAGGGUUUUUGGGAAAGUAUUAUGUUACGCCGUUCGGAUCUGCACUUCC: 1.13
GCAGGAAGUAAAAACAAAUGGAAAUGCUUCGGAUAGUGGCAGGGGUGGGGGUCGCUAAGGAAAGGGUGGGAUGGGAGUGGGUAAAGAGUU: 0.11
AAGUCCUGUGCUACACAUCGUAUGUACCGAAUCAAACCCCCAAAUUUAAAUUUAAAAAAGUAUUAUGUUACGCCGUUCGGAUCUGCACUU: 0.261
CCUCAAGUCCUGUGCUACACAUCGUAUGUACCGAAUCGGAAAGGAAAGGAGGAAAGUAUUAUGUUACGCCGUUCGGAUCUGCACUUCCAG: 0.184
AAGUCCUGUGCUACACAUCGUAUGUACCGAAUCGGGUGGGUUUUUGGGAAAAAGGGAAAGUAUUAUGUUACGCCGUUCGGAUCUGCACUU: 0.607
CUGUGCUACACAUCGUAUGUACCGAAUCAAACCCCCCCAAAUUUUUUUAAAUUUUUUUAAAAAAGUAUUAUGUUACGCCGUUCGGAUCUG: -0.468

Sample 7
Target: Sal-like protein 4, full length isoform A (SALL4, Homo sapiens, UniProt Q9UJQ4, residues 1-1053)
UniProt Q9UJQ4, sequence (whole entry, looked up): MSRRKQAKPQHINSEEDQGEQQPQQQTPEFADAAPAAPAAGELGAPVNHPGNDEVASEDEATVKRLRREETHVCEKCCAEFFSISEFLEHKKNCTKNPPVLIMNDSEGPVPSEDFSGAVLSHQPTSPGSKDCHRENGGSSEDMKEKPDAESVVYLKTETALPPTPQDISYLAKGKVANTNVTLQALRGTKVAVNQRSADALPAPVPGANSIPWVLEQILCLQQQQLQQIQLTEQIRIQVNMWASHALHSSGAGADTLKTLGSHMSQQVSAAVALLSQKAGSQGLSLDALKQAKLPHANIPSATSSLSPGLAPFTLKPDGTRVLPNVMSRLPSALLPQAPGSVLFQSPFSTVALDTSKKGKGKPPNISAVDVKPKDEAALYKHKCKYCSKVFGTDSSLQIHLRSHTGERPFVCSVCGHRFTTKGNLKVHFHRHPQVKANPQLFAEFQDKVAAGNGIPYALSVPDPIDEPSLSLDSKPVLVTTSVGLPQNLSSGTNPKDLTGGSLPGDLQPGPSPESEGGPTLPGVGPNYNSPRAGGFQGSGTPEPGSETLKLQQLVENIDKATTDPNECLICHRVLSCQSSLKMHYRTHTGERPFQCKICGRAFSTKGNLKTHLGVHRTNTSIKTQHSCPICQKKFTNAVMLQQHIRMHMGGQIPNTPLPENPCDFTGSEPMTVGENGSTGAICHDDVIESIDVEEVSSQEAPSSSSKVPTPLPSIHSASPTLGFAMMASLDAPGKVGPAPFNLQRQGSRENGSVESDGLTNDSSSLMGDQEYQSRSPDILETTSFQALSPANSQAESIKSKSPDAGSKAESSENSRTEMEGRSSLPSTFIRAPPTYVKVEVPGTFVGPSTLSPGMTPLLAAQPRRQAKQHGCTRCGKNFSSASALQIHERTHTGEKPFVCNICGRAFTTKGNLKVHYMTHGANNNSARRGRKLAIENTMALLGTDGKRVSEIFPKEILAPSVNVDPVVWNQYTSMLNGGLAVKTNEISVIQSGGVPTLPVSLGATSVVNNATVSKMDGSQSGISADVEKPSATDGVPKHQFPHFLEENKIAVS
Method: universal PBM
Molecule type: double-stranded DNA, one strand shown
Sample: in vitro
Concentration: 600 nM
Setting: 8-mer, flanks averaged, mean of replicates
Reading: higher = stronger binding
Endpoint: E-score
CCCCGGAA: -0.306
CGGCGCCG: -0.258
ATCCCCCC: -0.315
ATCGTAGG: 0.029
AATAGGTG: 0.105
CAATACGG: -0.149
AGGTGCAC: -0.23
AGGTTCCA: -0.102
TCCGGAGA: -0.179
AGGTGTCA: 0.0592
GAACCCCA: -0.236
ACATCTAC: 0.174
CTAGGTAA: 0.0815
ACCGTAGG: -0.237
ACAGTACC: -0.0331
AGCTGGAA: -0.098
AACCTCTA: 0.116
GCACAAGA: -0.0329
AAGGTTGG: -0.0785
TTAATGAA: 0.364

Mixed results
PhoQ, residues 284 288 289 292 302 303 AGGCYF
fold induction (PhoP, residues 12 14 15 18 19 LWHSL (Escherichia coli, UniProt P23836); Sort-seq, measured: YFP reporter; E. coli; PhoQ-PhoP variant library, with: 10 µM Mg2+; reference: high Mg2+ state, higher = stronger signaling): 15.5 and 11.3
